# Experimental data from different studies.
# Each numbered part is a random draw from the data of one study; scales do not carry over between parts. Several values in a cell are separate wells, animals, samples, runs or records.
# Chain of UniProt P10721 (whole entry, unmodified, looked up): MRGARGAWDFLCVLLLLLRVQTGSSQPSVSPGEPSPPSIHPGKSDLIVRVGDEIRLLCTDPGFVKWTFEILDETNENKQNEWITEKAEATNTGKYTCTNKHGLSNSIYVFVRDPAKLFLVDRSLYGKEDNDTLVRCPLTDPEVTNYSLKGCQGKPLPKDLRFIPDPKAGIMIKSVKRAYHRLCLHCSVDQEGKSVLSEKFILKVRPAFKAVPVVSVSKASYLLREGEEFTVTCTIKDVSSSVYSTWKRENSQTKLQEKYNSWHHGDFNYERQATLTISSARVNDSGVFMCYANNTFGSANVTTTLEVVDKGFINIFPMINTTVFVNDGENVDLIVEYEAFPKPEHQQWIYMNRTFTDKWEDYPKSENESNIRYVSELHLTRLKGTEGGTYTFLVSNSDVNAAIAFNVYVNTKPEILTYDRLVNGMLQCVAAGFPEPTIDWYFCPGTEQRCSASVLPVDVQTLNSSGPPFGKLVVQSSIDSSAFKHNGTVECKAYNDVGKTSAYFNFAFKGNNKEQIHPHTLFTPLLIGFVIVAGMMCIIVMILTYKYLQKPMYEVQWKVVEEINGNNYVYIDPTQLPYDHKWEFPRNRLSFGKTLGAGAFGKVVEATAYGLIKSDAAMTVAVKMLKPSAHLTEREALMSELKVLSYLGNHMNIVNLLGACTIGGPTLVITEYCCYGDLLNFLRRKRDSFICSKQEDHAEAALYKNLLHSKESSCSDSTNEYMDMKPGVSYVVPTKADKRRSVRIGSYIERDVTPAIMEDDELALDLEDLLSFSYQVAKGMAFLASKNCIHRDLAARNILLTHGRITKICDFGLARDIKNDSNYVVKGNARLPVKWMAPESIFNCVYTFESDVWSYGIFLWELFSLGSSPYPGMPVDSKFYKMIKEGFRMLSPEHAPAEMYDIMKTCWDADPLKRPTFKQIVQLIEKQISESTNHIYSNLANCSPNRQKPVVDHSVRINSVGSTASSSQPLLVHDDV
# Chain of UniProt P41743 (whole entry, looked up): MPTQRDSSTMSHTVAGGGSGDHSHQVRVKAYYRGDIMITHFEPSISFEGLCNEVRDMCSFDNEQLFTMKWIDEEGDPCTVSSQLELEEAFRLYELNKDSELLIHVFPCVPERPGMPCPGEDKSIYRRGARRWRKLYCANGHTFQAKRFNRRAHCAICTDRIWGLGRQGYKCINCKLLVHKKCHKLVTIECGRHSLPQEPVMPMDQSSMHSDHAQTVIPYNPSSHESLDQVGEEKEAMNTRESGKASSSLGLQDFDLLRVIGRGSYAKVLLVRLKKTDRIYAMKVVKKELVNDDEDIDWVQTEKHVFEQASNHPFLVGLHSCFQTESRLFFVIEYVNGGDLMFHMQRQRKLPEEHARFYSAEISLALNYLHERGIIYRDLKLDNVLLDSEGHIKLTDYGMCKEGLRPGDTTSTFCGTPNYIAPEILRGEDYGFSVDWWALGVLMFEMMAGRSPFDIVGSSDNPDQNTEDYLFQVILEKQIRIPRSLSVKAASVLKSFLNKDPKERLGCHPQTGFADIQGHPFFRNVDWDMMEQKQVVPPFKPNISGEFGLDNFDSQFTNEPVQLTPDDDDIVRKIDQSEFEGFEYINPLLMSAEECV
# Chain of UniProt P36897 (whole entry, looked up): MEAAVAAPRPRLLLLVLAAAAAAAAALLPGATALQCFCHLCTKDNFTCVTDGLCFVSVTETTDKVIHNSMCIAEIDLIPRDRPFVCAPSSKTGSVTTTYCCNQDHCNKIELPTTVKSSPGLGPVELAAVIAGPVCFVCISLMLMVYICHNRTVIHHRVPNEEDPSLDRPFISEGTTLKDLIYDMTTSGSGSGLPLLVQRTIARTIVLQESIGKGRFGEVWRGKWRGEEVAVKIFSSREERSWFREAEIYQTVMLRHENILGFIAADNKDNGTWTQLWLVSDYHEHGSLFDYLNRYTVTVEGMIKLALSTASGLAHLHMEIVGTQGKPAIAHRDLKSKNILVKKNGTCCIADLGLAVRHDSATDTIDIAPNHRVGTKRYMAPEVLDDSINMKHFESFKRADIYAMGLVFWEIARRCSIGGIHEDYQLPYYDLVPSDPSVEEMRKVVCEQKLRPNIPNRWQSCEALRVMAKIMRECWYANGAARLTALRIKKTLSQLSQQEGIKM
# Chain of UniProt Q9Y6M4 (whole entry, looked up): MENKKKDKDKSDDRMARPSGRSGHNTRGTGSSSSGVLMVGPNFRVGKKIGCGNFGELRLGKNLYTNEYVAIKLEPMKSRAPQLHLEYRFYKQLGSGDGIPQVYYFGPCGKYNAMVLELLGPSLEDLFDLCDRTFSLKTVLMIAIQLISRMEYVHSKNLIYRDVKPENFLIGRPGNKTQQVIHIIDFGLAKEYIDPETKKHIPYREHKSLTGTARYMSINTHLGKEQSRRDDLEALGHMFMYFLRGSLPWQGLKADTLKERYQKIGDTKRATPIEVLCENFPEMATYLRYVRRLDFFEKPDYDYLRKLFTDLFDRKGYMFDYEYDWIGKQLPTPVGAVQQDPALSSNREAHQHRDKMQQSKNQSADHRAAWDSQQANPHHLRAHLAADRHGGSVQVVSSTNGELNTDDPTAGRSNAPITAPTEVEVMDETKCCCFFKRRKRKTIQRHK

# Block 1
# Cell line: HaCaT
# Concentration: 100 µM
# Time: 60 h
Compound,viability
COCCOC(=O)C1=C(C)NC(C)=C(C(=O)OC(C)C)C1c1cccc([N+](=O)[O-])c1 (stereo not drawn),18.5%
O=c1cc(-c2ccccc2)oc2cc(O)c(O)c(O)c12,39.8%
Cc1onc(-c2ccccc2)c1-c1ccc(S(N)(=O)=O)cc1,93.4%
CC(=O)Oc1cc(C(F)(F)F)ccc1C(=O)O,126%
Cc1[nH]c(=O)c(C#N)cc1-c1ccncc1,153%
Nc1ncnc2c1ncn2[C@@H]1O[C@H](COP(=O)(O)O)[C@@H](O)[C@H]1O,92.2%
COc1ccc2[nH]c(SCc3ncc(C)c(OC)c3C)nc2c1,91.4%
COc1ccc2c(c1)c(CC(=O)OCC(=O)O)c(C)n2C(=O)c1ccc(Cl)cc1,115%
Cc1cncc(CN2CCC(=C3c4ccc(Cl)cc4CCc4cccnc43)CC2)c1,15.6%
COc1ccc(-c2cc(=S)ss2)cc1,107%
CN/C(=N/CCSCc1nc[nH]c1C)NC#N,124%
CCn1cc(C(=O)O)c(=O)c2ccc(C)nc21,117%

# Block 2
# SMILES: N#CC1(c2ccccn2)CCN(Cc2cc(C(=O)N3CCCC3)c(=O)n3ccccc23)CC1
# Method: competition with immobilised ligand
# Concentration: 1 µM
target,assay,remaining binding [%]
"MAP3K20 (Homo sapiens, UniProt Q9NYL2)",cell-free assay,95
"PRKCI (Homo sapiens, UniProt P41743)",cell-free assay,87
"CHEK2 (Homo sapiens, UniProt O96017)",cell-free assay,92
"TGFBR1 (Homo sapiens, UniProt P36897)",cell-free assay,72
"COQ8A (Homo sapiens, UniProt Q8NI60)",cell-free assay,85
"MAP3K12 (Homo sapiens, UniProt Q12852)",cell-free assay,100
"CAMK1G (Homo sapiens, UniProt Q96NX5)",cell-free assay,100
"MAPK1 (Homo sapiens, UniProt P28482)",cell-free assay,98
"PIP4K2C (Homo sapiens, UniProt Q8TBX8)",cell-free assay,58
"FGFR3 (Homo sapiens, UniProt P22607)",cell-free assay,88
"CSNK1G3 (Homo sapiens, UniProt Q9Y6M4)",cell-free assay,76
"LRRK2 (Homo sapiens, UniProt Q5S007)",cell-free assay,100
"KIT (Homo sapiens, UniProt P10721, V559D)",cell-free assay,100
"PIK3CA (Homo sapiens, UniProt P42336, M1043I)",cell-free assay,72
"TESK1 (Homo sapiens, UniProt Q15569)",cell-free assay,90
"SLK (Homo sapiens, UniProt Q9H2G2)",cell-free assay,100
"PRKCE (Homo sapiens, UniProt Q02156)",cell-free assay,79
"FLT3 (Homo sapiens, UniProt P36888, F691L/ITD)",cell-free assay,90
"Ribosomal protein S6 kinase alpha-6, N-terminal kinase domain (RPS6KA6, Homo sapiens, UniProt Q9UK32)",cell-free assay,89
"ULK1 (Homo sapiens, UniProt O75385)",cell-free assay,91
"Tyrosine-protein kinase ABL1, non-phosphorylated (ABL1, Homo sapiens, UniProt P00519, F317I)",binding,87
"BRSK2 (Homo sapiens, UniProt Q8IWQ3)",cell-free assay,77
"FRK (Homo sapiens, UniProt P42685)",cell-free assay,80
"CAMK1D (Homo sapiens, UniProt Q8IU85)",cell-free assay,100
"ACVRL1 (Homo sapiens, UniProt P37023)",cell-free assay,100

# Block 3
# Target: DNA polymerase theta, ATPase domain (POLQ, Homo sapiens, UniProt O75417)
# Chain of UniProt O75417 (whole entry, unmodified, looked up): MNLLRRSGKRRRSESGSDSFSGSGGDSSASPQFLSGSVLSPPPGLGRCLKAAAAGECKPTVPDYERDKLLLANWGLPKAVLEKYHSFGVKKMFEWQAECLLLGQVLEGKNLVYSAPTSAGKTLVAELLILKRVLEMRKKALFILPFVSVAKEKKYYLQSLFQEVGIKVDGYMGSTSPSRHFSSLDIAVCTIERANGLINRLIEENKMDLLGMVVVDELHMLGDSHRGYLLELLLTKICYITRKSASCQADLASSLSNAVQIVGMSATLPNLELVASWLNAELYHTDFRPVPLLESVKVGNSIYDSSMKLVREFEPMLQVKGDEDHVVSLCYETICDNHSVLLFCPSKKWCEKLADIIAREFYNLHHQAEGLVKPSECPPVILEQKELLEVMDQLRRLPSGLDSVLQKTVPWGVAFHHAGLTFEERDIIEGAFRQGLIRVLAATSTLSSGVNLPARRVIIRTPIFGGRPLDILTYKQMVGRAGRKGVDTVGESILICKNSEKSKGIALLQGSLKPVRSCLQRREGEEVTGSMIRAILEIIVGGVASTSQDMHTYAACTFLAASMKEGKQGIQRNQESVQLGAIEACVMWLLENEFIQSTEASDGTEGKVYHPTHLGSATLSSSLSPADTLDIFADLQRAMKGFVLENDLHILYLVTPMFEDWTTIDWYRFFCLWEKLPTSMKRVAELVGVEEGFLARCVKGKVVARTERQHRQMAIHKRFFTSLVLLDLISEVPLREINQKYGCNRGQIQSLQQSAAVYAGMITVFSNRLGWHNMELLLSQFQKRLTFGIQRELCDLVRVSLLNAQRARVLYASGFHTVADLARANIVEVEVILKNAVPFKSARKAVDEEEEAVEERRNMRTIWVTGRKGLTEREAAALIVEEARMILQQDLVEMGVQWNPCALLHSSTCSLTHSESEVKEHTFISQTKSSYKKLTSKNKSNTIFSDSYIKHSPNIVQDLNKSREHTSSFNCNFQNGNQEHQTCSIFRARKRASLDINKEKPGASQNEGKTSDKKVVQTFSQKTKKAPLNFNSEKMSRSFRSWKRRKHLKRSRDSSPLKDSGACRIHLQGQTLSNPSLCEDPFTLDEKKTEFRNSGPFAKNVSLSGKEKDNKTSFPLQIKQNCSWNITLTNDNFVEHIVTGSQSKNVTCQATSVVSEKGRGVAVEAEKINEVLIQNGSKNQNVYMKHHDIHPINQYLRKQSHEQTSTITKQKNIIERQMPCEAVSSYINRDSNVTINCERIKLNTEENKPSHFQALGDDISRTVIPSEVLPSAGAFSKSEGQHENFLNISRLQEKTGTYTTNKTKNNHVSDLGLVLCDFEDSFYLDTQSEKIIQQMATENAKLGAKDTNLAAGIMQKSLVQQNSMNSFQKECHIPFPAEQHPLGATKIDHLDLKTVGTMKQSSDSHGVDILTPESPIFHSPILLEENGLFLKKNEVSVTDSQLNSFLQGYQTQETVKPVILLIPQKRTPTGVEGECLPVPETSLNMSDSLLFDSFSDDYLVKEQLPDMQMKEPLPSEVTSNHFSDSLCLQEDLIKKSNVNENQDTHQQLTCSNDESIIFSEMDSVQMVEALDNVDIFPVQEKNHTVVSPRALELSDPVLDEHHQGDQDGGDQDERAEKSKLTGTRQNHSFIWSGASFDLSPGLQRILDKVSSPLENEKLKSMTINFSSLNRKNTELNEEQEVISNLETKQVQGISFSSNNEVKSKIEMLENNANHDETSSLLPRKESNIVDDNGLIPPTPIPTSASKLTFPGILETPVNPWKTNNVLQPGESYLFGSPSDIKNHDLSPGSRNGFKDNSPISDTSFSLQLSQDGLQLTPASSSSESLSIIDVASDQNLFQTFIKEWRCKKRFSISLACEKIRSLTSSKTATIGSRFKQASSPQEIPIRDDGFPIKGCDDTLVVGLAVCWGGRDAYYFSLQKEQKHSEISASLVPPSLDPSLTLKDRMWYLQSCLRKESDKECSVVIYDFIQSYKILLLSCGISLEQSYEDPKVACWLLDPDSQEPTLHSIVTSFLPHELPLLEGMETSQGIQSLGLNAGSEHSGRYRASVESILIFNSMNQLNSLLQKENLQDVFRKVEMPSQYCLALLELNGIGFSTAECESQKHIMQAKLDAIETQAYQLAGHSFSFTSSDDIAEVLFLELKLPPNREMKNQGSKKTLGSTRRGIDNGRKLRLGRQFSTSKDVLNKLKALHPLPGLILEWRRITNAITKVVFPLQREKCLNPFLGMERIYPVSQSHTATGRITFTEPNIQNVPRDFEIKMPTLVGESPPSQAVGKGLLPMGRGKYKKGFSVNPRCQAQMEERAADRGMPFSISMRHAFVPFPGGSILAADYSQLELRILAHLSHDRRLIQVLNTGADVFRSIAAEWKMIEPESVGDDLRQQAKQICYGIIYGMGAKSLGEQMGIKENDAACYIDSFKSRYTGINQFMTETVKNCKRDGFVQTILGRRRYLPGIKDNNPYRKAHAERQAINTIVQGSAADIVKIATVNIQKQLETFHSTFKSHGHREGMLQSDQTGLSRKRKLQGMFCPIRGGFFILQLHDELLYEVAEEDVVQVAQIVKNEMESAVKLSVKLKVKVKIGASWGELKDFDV
# Observed: enzyme activity
# Action: inhibitor
# Concentration: 77 µM
# Baseline: untreated
Compound,remaining activity
NC(=O)c1cc[n+](CC2=C(C(=O)[O-])N3C(=O)[C@@H](NC(=O)Cc4cccs4)[C@H]3SC2)cc1,100%
NC(=O)c1ncn([C@@H]2O[C@H](CO)[C@@H](O)[C@H]2O)c1O,99%
CC#C[C@]1(O)CC[C@H]2[C@@H]3CCC4=CC(=O)CCC4=C3[C@@H](c3ccc(N(C)C)cc3)C[C@@]21C,102% and 95.3% and 92.2%
O=C(O)COC(=O)Cc1ccccc1Nc1c(Cl)cccc1Cl,106%
CC(NCCC(c1ccccc1)c1ccccc1)c1ccccc1 (stereo not drawn),95.9%
CSc1ccc(C(=O)c2[nH]c(=O)[nH]c2C)cc1,98.8%
C#CCN[C@@H]1CCc2ccccc21,103%
NCc1ccc(S(N)(=O)=O)cc1,98.5%
Clc1ccc(Nc2nnc(Cc3ccncc3)c3ccccc23)cc1,101%
CC(=O)c1cc([N+](=O)[O-])c(Sc2ccc(F)cc2F)s1,105%
COc1cccc(C(=O)NCCN2CCN(c3ccc(Cl)cc3)CC2)c1,104%
COc1cc(C)nc(-n2nc(C)cc2OC)n1,93.4%
CCCCCCOC(=O)NC(=N)c1ccc(NCc2nc3cc(C(=O)N(CCC(=O)OCC)c4ccccn4)ccc3n2C)cc1,97.1%
Cc1cc(Nc2ncnc3ccc(-c4ccc(CNCCS(C)(=O)=O)o4)cc23)ccc1Oc1ccn2ncnc2c1,97.7%
CC(C)[C@H]1C(=O)N[C@@H](CCCNC(=N)N)C(=O)NCC(=O)N[C@@H](CC(=O)O)C(=O)N[C@H](Cc2ccccc2)C(=O)N1C,99.7%
CCOC(=O)c1c(C)n(C)c2ccc(O)cc12,104%
CCCCS(=N)(=O)CCC(N)C(=O)O (racemic),92.6%
NCCC(=O)NCCc1c[nH]cn1,98.3%

# Block 4
# SMILES: Nc1[nH]nc2nnc(-c3c(-c4ccccc4)nn4ccccc34)cc12
# Observed: enzyme activity
# Action: inhibitor
# Concentration: 0.5 µM
# Baseline: control
target,remaining activity
"LRRK2 (Homo sapiens, UniProt Q5S007)",91.8%
"MKNK2 (Homo sapiens, UniProt Q9HBH9)",98.3%
"WNK2 (Homo sapiens, UniProt Q9Y3S1)",111%
"CSNK2A1 (Homo sapiens, UniProt P68400)",94.8%
"LYN (Homo sapiens, UniProt P07948)",94.9%
"KIT (Homo sapiens, UniProt P10721)",97.1%
"IRAK4 (Homo sapiens, UniProt Q9NWZ3)",99.7%
"CHEK1 (Homo sapiens, UniProt O14757)",103%
"PRKCI (Homo sapiens, UniProt P41743)",98.3%
"PRKCD (Homo sapiens, UniProt Q05655)",31.2%
"NEK4 (Homo sapiens, UniProt P51957)",88.4%
"PRKG1 (Homo sapiens, UniProt Q13976)",93.6%
"PLK2 (Homo sapiens, UniProt Q9NYY3)",107%
"MAPK12 (Homo sapiens, UniProt P53778)",104%
"MAP4K2 (Homo sapiens, UniProt Q12851)",98.6%
"CSNK1A1 (Homo sapiens, UniProt P48729)",100%
"MAPK13 (Homo sapiens, UniProt O15264)",101%
"Cyclin-dependent kinase 9, with cyclin T1 (CDK9, Homo sapiens, UniProt P50750)",97.3%
"MAP2K6 (Homo sapiens, UniProt P52564)",90.9%
"BTK (Homo sapiens, UniProt Q06187)",93.6%
"MAP3K10 (Homo sapiens, UniProt Q02779)",90.7%
"EPHA5 (Homo sapiens, UniProt P54756)",101%
"AKT3 (Homo sapiens, UniProt Q9Y243)",97.5%

# For quick reference, copied from above (block 1):
Compound,viability
COCCOC(=O)C1=C(C)NC(C)=C(C(=O)OC(C)C)C1c1cccc([N+](=O)[O-])c1 (stereo not drawn),18.5%
CN/C(=N/CCSCc1nc[nH]c1C)NC#N,124%
Cc1[nH]c(=O)c(C#N)cc1-c1ccncc1,153%
CCn1cc(C(=O)O)c(=O)c2ccc(C)nc21,117%
CC(=O)Oc1cc(C(F)(F)F)ccc1C(=O)O,126%
Cc1cncc(CN2CCC(=C3c4ccc(Cl)cc4CCc4cccnc43)CC2)c1,15.6%
